Experimental data of several laboratories.
Numbered parts are unrelated; each lists some results of a single study.

Series 1 — read-out: enzyme activity; mode: inhibitor; tested at: 20 µM
Target: Replicase polyprotein 1ab, polymerase (rep, Severe acute respiratory syndrome coronavirus 2, UniProt P0DTD1)
For `C[C@H](NC(=O)[C@@H](O)c1cc(F)cc(F)c1)C(=O)N[C@@H]1C(=O)N(C)c2ccccc2-c2ccccc21`, the inhibition was -1.39%.
With `C#C[C@]1(O)CC[C@H]2[C@@H]3CCc4cc(O)ccc4[C@H]3CC[C@@]21C` the inhibition was 6.46%.
`CC(C)c1ccc2c(c1)CC[C@H]1[C@](C)(CN)CCC[C@]21C` gave an inhibition of 8.33%.
`COC(=O)c1cc(OC)c2c(c1-c1c(C(=O)OC)cc(OC)c3c1OCO3)OCO2` gave an inhibition of -0.48%.
`COc1cc(OC)c(C(=O)CCCCN2CCC3(CC2)NC(=O)NC3=O)cc1NS(=O)(=O)c1ccc(C(F)(F)F)cc1` gave an inhibition of -7.47%.
With `CC(C)(C)NCC(O)COc1cccc2c1CCC(=O)N2` (stereo not drawn) the inhibition was 3.34%.
With `Cc1cc(/C=C/c2ccc3cc(N(C)C)ccc3[n+]2C)c(C)n1-c1ccccc1` the inhibition was 7.79%.
For `CCCCCCCC/C=C\CCCCCCCC(=O)OC(CO)CO`, the inhibition was 2.19%.
`CCCN[C@H]1CCc2nc(N)sc2C1` has an inhibition of -1.26%.
`N#Cc1nn(-c2c(Cl)cc(C(F)(F)F)cc2Cl)c(N)c1[S+]([O-])C(F)(F)F` (stereo not drawn) gave an inhibition of -3.58%.
The inhibition of `COc1cccc(C(=O)CCN[C@@H](C)[C@H](O)c2ccccc2)c1` is reported as 1.08%.
With `COc1ccc(Oc2c(Cl)cnn(C3c4ccccc4-c4ccccc43)c2=O)cc1` the inhibition was 3.46%.
`C=CC(=O)Nc1cccc(Nc2nc(Nc3ccc(NC4CN(CCF)C4)cc3OC)ncc2C(F)(F)F)c1` has an inhibition of 1.69%.
`COc1cc(C=O)ccc1O` has an inhibition of -3.42%.
With `O=C(O)c1ccccc1C(=O)Nc1ccc(-c2ccccc2)cc1` the inhibition was 3.8%.
`Cc1cc(C)cc(C(=O)OC2C[C@H]3CC[C@@H](C2)N3C)c1` (stereo partly drawn) gave an inhibition of -0.88%.
The inhibition of `CN(C)CCOc1cc(-c2cn[nH]c2)ccc1NC(=O)C1COc2ccccc2O1` (stereo not drawn) is reported as 0.34%.
`CS(=O)(=O)CCNCc1nc(-c2ccc3ncnc(Nc4ccc(OCc5cccc(F)c5)c(Cl)c4)c3c2)cs1` gave an inhibition of 13.3%.
`Cn1c(=O)c2[nH]c(Br)nc2n(C)c1=O` gave an inhibition of -8.36%.
With `C[C@@H]1O[C@@H]1P(=O)(O)O` the inhibition was 9.31%.
The inhibition of `Cn1nnc(-c2ccc(-c3ccc(N4C[C@H](CO)OC4=O)cc3F)cn2)n1` is reported as 1.85%.
The inhibition of `O=C(Nc1ccc(CN2CCOCC2)cc1)c1ccc(-c2cccc(Cl)c2)o1` is reported as -4.97%.
The inhibition of `C[C@](N)(Cc1ccc(O)cc1)C(=O)O` is reported as 2.84%.
With `CCn1c2ccccc2c2cc(Nc3ccnc(NCCCN4CCOCC4)n3)ccc21` the inhibition was 1.83%.
`Cc1cnc(-c2cc(N3CCN(C(=O)CCS(C)(=O)=O)CC3)ncc2Cl)c(C)c1` gave an inhibition of -0.27%.

Series 2 — method: universal PBM; molecule type: double-stranded DNA, one strand shown; matrix: in vitro; tested at: 600 nM; reading: higher = stronger binding
Target: Sal-like protein 4, full length isoform A (SALL4, Homo sapiens, UniProt Q9UJQ4, residues 1-1053)
Sequence of UniProt Q9UJQ4 (whole entry, looked up): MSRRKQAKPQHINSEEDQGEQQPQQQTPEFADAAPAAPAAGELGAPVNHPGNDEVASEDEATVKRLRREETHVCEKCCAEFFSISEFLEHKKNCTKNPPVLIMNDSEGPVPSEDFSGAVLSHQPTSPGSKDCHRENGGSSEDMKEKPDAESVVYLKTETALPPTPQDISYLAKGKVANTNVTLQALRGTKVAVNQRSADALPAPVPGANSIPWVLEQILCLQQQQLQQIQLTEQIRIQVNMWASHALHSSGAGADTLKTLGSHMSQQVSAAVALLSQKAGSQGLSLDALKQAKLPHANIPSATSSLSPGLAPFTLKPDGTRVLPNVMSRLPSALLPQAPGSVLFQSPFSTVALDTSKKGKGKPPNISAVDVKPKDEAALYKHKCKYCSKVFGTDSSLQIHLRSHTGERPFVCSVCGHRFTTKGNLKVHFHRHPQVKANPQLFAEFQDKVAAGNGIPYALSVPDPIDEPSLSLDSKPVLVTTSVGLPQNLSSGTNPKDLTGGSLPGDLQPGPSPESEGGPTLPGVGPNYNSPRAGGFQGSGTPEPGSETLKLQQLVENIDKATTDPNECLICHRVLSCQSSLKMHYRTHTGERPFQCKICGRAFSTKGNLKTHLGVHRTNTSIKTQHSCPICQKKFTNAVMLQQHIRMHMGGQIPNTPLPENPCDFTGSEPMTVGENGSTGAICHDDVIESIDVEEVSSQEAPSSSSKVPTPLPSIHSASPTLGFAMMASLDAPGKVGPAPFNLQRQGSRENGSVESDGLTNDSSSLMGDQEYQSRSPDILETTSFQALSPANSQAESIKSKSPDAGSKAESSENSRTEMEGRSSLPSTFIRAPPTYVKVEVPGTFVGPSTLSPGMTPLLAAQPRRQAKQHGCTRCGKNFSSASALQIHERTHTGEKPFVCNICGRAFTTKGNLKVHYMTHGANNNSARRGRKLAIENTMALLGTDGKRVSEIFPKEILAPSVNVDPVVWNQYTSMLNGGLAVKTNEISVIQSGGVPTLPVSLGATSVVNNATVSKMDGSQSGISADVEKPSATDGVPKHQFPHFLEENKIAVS
Setting: 8-mer, flanks averaged, mean of replicates
For `CAAGGATA`, the E-score was 0.0308.
For `GGCAATAA`, the E-score was 0.241.
`GGGTGACA` has an E-score of -0.271.
`ATCAACCA` has an E-score of 0.069.
For `GAGTGAGC`, the E-score was -0.096.
With `TCAGGCGA` the E-score was -0.194.
The E-score of `CTGTCCGC` is reported as -0.245.
With `GAACGCGC` the E-score was -0.278.

Series 3 — method: RNA Bind-n-Seq; molecule type: RNA; matrix: in vitro; tested at: 365 nM; reference: no-protein control; reading: higher = stronger binding
Target: RNA binding protein fox-1 homolog 2, RRM domain, GST-SBP tag (RBFOX2, Homo sapiens, UniProt O43251-10, residues 100-194)
Setting: natural RNA segment, single round, ends assumed
Construct (chain): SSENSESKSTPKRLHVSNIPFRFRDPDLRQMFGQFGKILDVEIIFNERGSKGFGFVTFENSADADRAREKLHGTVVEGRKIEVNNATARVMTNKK
For `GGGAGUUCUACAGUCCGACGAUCUAGCGACAACAGAUUGGAUUUUAUGUUGACAUUUGUUUGGUUAUAGUGCAAUAUAUUUUGUAUGCAAACAGUUUCAAUAAAGUUUGAUCUUCCUCUGCUAAAUUGAUGUUUGGAAUUCUCGGGUGCCAA`, “RBNS enrichment (R)” read 0.345.
`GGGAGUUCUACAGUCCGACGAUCCAAAGAAAUUUUGGAGUGAGUGGCAGUCCUGCGCCAGCCUCGCGGGACACGUGUUGUACAUAAGCCUCUGCAGUGUCCUCUUGUUAAUGGUGGGGUUUUCUGCUUUGUUUUGGAAUUCUCGGGUGCCAA` — result for “RBNS enrichment (R)”: 0.523.
Under “RBNS enrichment (R)”, `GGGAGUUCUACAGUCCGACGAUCGAAGCUCCUCGGUGCACUUUUGUCUCGGCAGAGCUGGGAGGGAGCAGGCGCUCGCGGAAGCACGUCACUUACUGGGUUUGUUCACCUGUUUCCAGCAAGUUUUGGUCUUUUGGAAUUCUCGGGUGCCAA` is recorded as 1.27.
For `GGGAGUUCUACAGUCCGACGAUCGCAAACACUAGAUAUGCAAAACUGGAUUUUUUUAAUUUAUUUUUUAAAAGAGGGAGGUGUGGUAUAUUAAAAUGAUUUUACUAAGAGAAAAAAAAUAUUUUUUUAAGGAUUGGAAUUCUCGGGUGCCAA`, “RBNS enrichment (R)” read 0.612.
`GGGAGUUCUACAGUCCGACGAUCUUUUUUAAUAUUUGGAGCAUGAGUUGUCACUUCUUGUUUGCCUUUUUUAUAAGGAAAUGUUGGAGAGUUACAUCAUUGCUAAUGUAGAAAUGUUAAGUGGAAAAAUAUACUGGAAUUCUCGGGUGCCAA` — result for “RBNS enrichment (R)”: 0.795.
Under “RBNS enrichment (R)”, `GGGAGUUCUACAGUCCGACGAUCCUCUUCCCUGCAGUGUUUUCAUUUUAUUUUAGCCAAACAUUUUGCCUGUUUUCUGUUUCAAACAUGAUAGUUGAUAUGAGACUGAAACCCCUGGGUUGUGGAGGGAAAUUUGGAAUUCUCGGGUGCCAA` is recorded as 0.636.
`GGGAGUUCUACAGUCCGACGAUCUGUUGUCCUGACAGUAAAGCAAAUAGUAAGCCAUGUCUUGAAAGUGAUUUGCUUGUUUCAUACUGACAUCUAAAGACAUCAGCCUUCUCUUUGGCAACCCUGGGGAUACUUGGAAUUCUCGGGUGCCAA`: “RBNS enrichment (R)” 0.46.
Under “RBNS enrichment (R)”, `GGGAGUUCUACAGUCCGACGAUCGAUCUCCUCACACUGGUAAUGUCUUUCCUGUUAGAGAGGUUUAUGCUACCACUUCGCAUUUCAUCUGUGAGGCAUUUCAUCUUUUAGACAUGUCUUCAUGUCCAGCUACUUGGAAUUCUCGGGUGCCAA` is recorded as 0.399.

Series 4 — method: protein binding microarray; molecule type: double-stranded DNA, one strand shown; matrix: in vitro; tested at: not given; reference: not given; reading: higher = stronger binding
Target: Histone acetyltransferase KAT6A, both winged helices, GST fusion (KAT6A, Homo sapiens, UniProt Q92794, residues 1-181)
Setting: 8-mer, flanks averaged, mean of 2 arrays, mostly near background
Target sequence (chain): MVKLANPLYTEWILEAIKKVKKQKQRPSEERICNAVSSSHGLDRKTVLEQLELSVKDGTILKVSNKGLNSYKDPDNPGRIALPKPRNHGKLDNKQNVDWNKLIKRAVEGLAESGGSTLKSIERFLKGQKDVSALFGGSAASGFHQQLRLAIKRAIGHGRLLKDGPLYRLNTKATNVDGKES
`ATTGTGTC` gave an E-score of -0.157.
With `CCGGGCGA` the E-score was 0.193.
For `CAAAAATG`, the E-score was -0.0179.
With `AACAGAAC` the E-score was -0.0643.
`GATAACTA` has an E-score of -0.179.
`AACGAGCC` has an E-score of -0.117.
`CAGGAAAC` has an E-score of -0.0857.
`GCCGTTCC` has an E-score of 0.222.

Series 5 — method: RNA Bind-n-Seq; molecule type: RNA; matrix: in vitro; tested at: 1 µM; setting: whole 134-nt RNA, ends assumed; added: 150 mM KCl; reference: input library; reading: higher = stronger binding
Target: Ras GTPase-activating protein-binding protein 1, C-terminal RGG region (G3BP1, Homo sapiens, UniProt Q13283)
Sequence of UniProt Q13283 (whole entry, looked up): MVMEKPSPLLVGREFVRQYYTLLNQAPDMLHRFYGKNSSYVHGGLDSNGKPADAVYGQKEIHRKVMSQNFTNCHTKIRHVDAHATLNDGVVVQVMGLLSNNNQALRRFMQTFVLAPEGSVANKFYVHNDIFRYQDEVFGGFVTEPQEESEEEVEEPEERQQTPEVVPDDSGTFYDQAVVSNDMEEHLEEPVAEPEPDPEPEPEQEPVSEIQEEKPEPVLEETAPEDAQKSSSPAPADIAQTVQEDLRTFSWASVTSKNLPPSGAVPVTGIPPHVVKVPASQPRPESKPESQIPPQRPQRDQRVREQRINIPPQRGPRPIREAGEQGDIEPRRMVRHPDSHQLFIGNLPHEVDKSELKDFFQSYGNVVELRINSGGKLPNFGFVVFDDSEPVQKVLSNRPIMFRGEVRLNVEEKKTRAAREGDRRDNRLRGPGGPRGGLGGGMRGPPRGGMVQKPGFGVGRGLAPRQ
`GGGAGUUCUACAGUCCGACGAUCAGUCCUGUGCUACACAUCGUAUGUACCGAAUCGGAAAAAGGUUUUUGGAAAAAAAGGAAAGUAUUAUGUUACGCCGUUCGGAUCUGCACUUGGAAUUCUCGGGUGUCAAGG` gave a log2 enrichment of -2.18.
`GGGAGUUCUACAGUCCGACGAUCCCUCAAGUCCUGUGCUACACAUCGUAUGUACCGAAUCGGGCGGCGGGGCGGGAAAGUAUUAUGUUACGCCGUUCGGAUCUGCACUUCCAGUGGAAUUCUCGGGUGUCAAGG` gave a log2 enrichment of 0.704.
The log2 enrichment of `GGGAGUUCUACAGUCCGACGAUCGUCCUGUGCUACACAUCGUAUGUACCGAAUCGGGGAAAAAGGGAAAAAGGAAAAAGGGAAAGUAUUAUGUUACGCCGUUCGGAUCUGCACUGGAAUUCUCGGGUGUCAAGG` is reported as -1.2.
`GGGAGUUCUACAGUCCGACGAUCAAGUCCUGUGCUACACAUCGUAUGUACCGAAUCGGGAAAAAAAGGGUGGGUUUGGGAAAGUAUUAUGUUACGCCGUUCGGAUCUGCACUUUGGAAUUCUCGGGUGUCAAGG` gave a log2 enrichment of 1.06.
With `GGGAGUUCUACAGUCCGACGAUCAAGUCCUGUGCUACACAUCGUAUGUACCGAAUCGGGUUUUGGGUUUUGGGUUUUGGAAAGUAUUAUGUUACGCCGUUCGGAUCUGCACUUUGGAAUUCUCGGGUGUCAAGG` the log2 enrichment was -1.17.

Series 6 — read-out: enzyme activity; mode: inhibitor; setting: with DTT
Target: Replicase polyprotein 1ab, main protease (rep, Severe acute respiratory syndrome coronavirus 2, UniProt P0DTD1)
The IC50 of `C[C@@H](CN1CC(=O)NC(=O)C1)N1CC(=O)NC(=O)C1` is reported as 0.25 µM.
For `CO[C@@H]1[C@H](OC(=O)NC(=O)CCl)CC[C@]2(CO2)[C@H]1[C@@]1(C)O[C@@H]1CC=C(C)C`, the IC50 was over 20 µM.
`COc1cc(N(C)C)cc(CN(C)CCc2ccc([N+](=O)[O-])cc2)c1O` has an IC50 of over 20 µM.

Excerpt of the above (series 2):
`ATCAACCA` has an E-score of 0.069.
With `TCAGGCGA` the E-score was -0.194.
The E-score of `CTGTCCGC` is reported as -0.245.
